Experimental data collected from several papers.
Each numbered part is a random draw from the data of one study; scales do not carry over between parts. Changes are numbered by the printed parent chain.

Block 1 — technique: two-hybrid; reference: out of 4 tests; reading: higher = firmer interaction; measurement: positive tests
Partner: ARF1 538-665 (Arabidopsis thaliana, UniProt Q8L7G0)
B1: IAA33 (Arabidopsis thaliana, UniProt Q9FKM7); chain MNSFEPQSQDSLQRRFHQDNSTTQQPRDTTTPFIPKPASKNHNNSNSSSGAAGRSFQGFGLNVEDDLVSSVVPPVTVVLEGRSICQRISLDKHGSYQSLASALRQMFVDGADSTDDLDLSNAIPGHLIAYEDMENDLLLAGDLTWKDFVRVAKRIRILPVKGNTRQVKRNE
B2: IAA31 (Arabidopsis thaliana, UniProt Q8H174); chain MEVSNSCSSFSSSSVDSTKPSPSESSVNLSLSLTFPSTSPQREARQDWPPIKSRLRDTLKGRRLLRRGDDTSLFVKVYMEGVPIGRKLDLCVFSGYESLLENLSHMFDTSIICGNRDRKHHVLTYEDKDGDWMMVGDIPWDMFLETVRRLKITRPERY
B3: IAA32 (Arabidopsis thaliana, UniProt Q8RYC6); chain MDPNTPADFFKGSSKFHTYYSQTKKGGGVIDLGLSLRTIQHETYLPPARMIGLDGYGELIDWSQPSYNSITQLKSEDTGHQRLAQGYYNNEGESRGKYAYVKVNLDGLVVGRKVCLVDQGAYATLALQLNDMFGMQTVSGLRLFQTESEFSLVYRDREGIWRNVGDVPWKEFVESVDRMRIARRNDALLPF
B4: IAA34 (Arabidopsis thaliana, UniProt Q9C5X0); chain MYCSDPPHPLHLVASDKQQKDHKLILSWKKPTMDSDPLGVFPNSPKYHPYYSQTTEFGGVIDLGLSLRTIQHEIYHSSGQRYCSNEGYRRKWGYVKVTMDGLVVGRKVCVLDHGSYSTLAHQLEDMFGMQSVSGLRLFQMESEFCLVYRDEEGLWRNAGDVPWNEFIESVERLRITRRNDAVLPF
Target sequence (chain): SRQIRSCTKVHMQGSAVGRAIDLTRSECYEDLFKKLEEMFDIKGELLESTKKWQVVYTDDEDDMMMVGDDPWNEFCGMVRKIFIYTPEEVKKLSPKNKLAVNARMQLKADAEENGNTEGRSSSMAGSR
B1 (IAA33): 0
B2 (IAA31): 2
B3 (IAA32): 0
B4 (IAA34): 2

Block 2 — target: CCNB1, cyclin fold, Cln2 fusion (human); technique: yeast growth competition, sequencing; sample: yeast; setting: strong parent motif; reference: not given; reading: higher = stronger binding; measurement: normalised enrichment score
Parent: PKMYT1 docking peptide (human); SFEPRNLLSLFED
F11P: 0.107
S9H: 0.636
S9W: 1.06
P4T: 0.261
E3Y: 1.96
L10V: 0.441
N6W: 0.0315
L8E: -2.52
F2G: -0.0172
S1T: 0.963
N6M: -1.34
S1H: 1.76
S9N: 1.45
E12H: 0.207
E12P: -0.574

Block 3 — technique: universal PBM; form: double-stranded DNA, one strand shown; sample: in vitro; tested at: not given; reading: higher = stronger binding; measurement: E-score
Target: Sal-like protein 4, full length isoform B (SALL4, Homo sapiens, UniProt Q9UJQ4-2, residues 1-616)
Setting: 8-mer, flanks averaged, mean of replicates
Residues (chain): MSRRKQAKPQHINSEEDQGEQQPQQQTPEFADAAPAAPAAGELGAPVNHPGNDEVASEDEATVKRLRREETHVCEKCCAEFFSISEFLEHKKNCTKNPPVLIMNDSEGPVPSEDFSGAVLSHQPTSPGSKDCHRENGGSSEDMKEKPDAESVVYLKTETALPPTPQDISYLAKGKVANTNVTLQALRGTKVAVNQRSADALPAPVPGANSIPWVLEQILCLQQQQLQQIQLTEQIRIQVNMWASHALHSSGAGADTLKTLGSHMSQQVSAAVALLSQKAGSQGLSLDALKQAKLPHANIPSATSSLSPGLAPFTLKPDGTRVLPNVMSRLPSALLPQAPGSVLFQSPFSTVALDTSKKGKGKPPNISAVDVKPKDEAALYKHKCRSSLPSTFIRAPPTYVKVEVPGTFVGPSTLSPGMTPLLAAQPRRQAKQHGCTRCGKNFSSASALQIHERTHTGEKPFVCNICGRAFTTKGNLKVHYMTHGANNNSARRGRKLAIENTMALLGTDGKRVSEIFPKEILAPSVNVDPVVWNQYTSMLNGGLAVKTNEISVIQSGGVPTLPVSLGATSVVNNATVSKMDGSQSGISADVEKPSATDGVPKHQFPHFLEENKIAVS
AACTACTG: -0.0786
GATCGATC: -0.251
ATTGATGA: 0.266
GATTCTGA: -0.016
GAGGTGCA: -0.178
CGTCAAGA: -0.151
ATCACCAC: 0.0372
ACTGACTG: -0.0978
GACAAGTC: -0.0756
CTGCTACA: -0.0752
AATCTCAG: -0.0645
AACTTGTG: 0.0871
AGTTATGC: 0.242
TGCTCCAA: -0.0262
AGTTCGCG: -0.191
CCTGATAA: 0.075
AATCCTTC: 0.0781
GGCTGGGA: -0.227
CACTTTCA: -0.00707
CGTAGTGA: -0.116
CTACGGTC: -0.298
CACCGGAG: -0.277
CTAGACCA: 0.0279
AAAGAAAA: 0.242
CCCGGTTA: -0.235

Block 4 — technique: DHFR PCA, deep sequencing; sample: yeast; added: (+)-ABA 2500 µM; reference: wild-type fitted maximum; reading: higher = stronger binding; measurement: relative binding score
Target: ABI1, truncated, D143A, DHFR fusion (Arabidopsis thaliana)
Setting: methotrexate growth selection, single substitutions
Parent: PYL1, truncated, DHFR fusion (Arabidopsis thaliana); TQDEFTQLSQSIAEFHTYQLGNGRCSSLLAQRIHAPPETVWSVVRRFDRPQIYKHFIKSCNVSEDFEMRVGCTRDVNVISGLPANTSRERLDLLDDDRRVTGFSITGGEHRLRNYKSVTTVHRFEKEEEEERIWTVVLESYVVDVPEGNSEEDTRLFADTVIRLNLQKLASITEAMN
G108D: 89.9%
S87T: 90.6%
A170I: 54.8%
D65Y: 94.1%
Q10D: 107%
Q31W: 83.9%
K168M: 92.9%
C25F: 93.1%
Y141D: -8.14%
V136K: 65.4%
D92Q: 93.3%
S80C: 69.1%
R32Q: 98.2%
E152A: 96%
H16I: 30.5%

Block 5 — technique: RNA Bind-n-Seq; form: RNA; sample: in vitro; tested at: not given; reference: input RNA pool; reading: higher = stronger binding; measurement: bound/input enrichment
Target: RING finger protein unkempt homolog, zinc fingers 1-6, GST-SBP tag (UNK, Homo sapiens, UniProt Q9C0B0, residues 30-357)
Setting: RNA with constant flanks, human and mouse sites, ends assumed
All sequences stand within: GGGAGUUCUACAGUCCGACGAUC … CAACAGAGGAUUGAGCAUCA
Residues (chain): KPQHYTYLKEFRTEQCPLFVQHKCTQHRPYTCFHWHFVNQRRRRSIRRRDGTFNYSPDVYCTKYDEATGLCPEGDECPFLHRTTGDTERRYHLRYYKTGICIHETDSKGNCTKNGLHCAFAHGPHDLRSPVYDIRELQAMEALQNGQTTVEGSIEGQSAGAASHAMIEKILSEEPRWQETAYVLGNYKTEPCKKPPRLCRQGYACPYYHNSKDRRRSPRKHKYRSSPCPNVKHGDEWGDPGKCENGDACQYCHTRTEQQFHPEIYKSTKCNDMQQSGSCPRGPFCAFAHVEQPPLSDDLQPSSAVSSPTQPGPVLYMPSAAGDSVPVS
UACAUGAUGAAAGCGUUCGACCUCAUCGUGGACCGACCCGUGACCCUCGUGAGAGAAUUUAUAGAGCGGCAGCACGCAAAGAACAGGUAUUACUACUACCACCGGCAGUACCGCCGCGUG: 0.129 ratio
GGAGUUAAAGCUGUGUUUAUGAAUAAACAUGACUGGUAUGAAGAAUAUCCAACCACACCUAGCUCUUUUGUUUUAAAUGGCUUUAUGUAUUCUUUAAUUGGGCUGUAUGACUUAAAAGAA: 0.988 ratio
CCCAAGGACAGGUGGAAUAACACUCCCAUGGAUGAAGCACUGCACUUUGGACACCAUGAUGUAUUUAAAAUUCUCCAAGAAUACCAAGUCCAGUACACACCUCAAGGAGAUUCUGACAAC: 0.228 ratio
GCCUGGUCCAGCAUCGUCUACCAGCUGAUUCCCAACGUUCAGCAGCUGGAGAUGAACCUCAGGAAUUUUGCCCAAAUCAUUGAGGCCGAUGAAGUUCUGCUGUUCGAAAGAGCUACAUUC: 0.0843 ratio
GGGGAGAAACCUUAUGAAUGCGUUCAGUGUGGGAAAUCGUAUAGUCAAAGCUCAAAUCUUUUUAGACAUCAGAGAAGACACAAUGCAGAAAAACUUCUGAAUGUUGUGAAAGUUUAAGAA: 0.683 ratio
GAAGACUGAAUUUGUACGAAUUUCAGUUUAAUGUGCUAAUCUAACAGAUGCACUAUGGACCAUAGGAAGGCUAGAGAUUGUGAAUUCUUCAGACAGAUUUCCCUGCAAUUCAGGCUGUGG: 0.179 ratio
GGUAUCCGAAGUCCCCGUGUUCGUCAUGUCGGCGUCUGUGGUGUCCGUCAUCUCCCGGUUCCUGGAGGAGUACUUGAGCUCCACUCCGCAGCGGCUGAAGUUGCUGGACGCCUAUCUCCU: 0.172 ratio
GAGCAAGAAUUUCAAACAUGCCUGACAAUCUGAUCUCUCUUGAAAUAAAGAGGGAUGCCAUUAGUCUAGACGUCGUUGUGAAAUCCUUGAGAUAUAAAGUGUGACUGGGUGUUUUCAAGA: 0.174 ratio
AUAGAAGGCCCUACACCAGUUUCAGCACUACUACACUCAAGUACAAUAGUAGUUGCAGGAAUUUUCCUACUGGUCCGAUUCCACCCCCUCACGACUAAUAAUAACUUUAUUUUAACAACU: 2.8 ratio
GAAGACUUUGGUCCAGAAAAGAAAACCAGUGAUGUUGAAACCAUGAGUUCUCAAUCAGCUCUAGCUUUGGAUGAAAGGAAAUUGGGAGGAGAUGUAUCUCCAACACAAAUAGACGUCAGU: 0.167 ratio
UUAGUCAUGGAAUACGCGAGUGGGGGUGAAGUAUUUGAUUACUUAGUUGCCCAUGGAAGAAUGAAAGAGAAAGAGGCCCGUGCAAAAUUUAGGCAGAUUGUAUCUGCUGUACAGUAUUGU: 0.379 ratio

Block 6 — technique: RNA Bind-n-Seq; form: RNA; sample: in vitro; tested at: 365 nM; reference: no-protein control; reading: higher = stronger binding; measurement: RBNS enrichment (R)
Target: RNA binding protein fox-1 homolog 2, RRM domain, GST-SBP tag (RBFOX2, Homo sapiens, UniProt O43251-10, residues 100-194)
Setting: natural RNA segment, single round, ends assumed
All sequences stand within: GGGAGUUCUACAGUCCGACGAUC … UGGAAUUCUCGGGUGCCAA
Residues (chain): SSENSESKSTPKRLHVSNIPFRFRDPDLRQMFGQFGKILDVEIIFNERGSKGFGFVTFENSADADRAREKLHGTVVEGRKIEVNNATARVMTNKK
GUGUGAACUGUCCUGUGAGCUUUAUGUCAGGAGACUGUGACCUUCAUGUCCAGCUUCAAAGAGUUGUGCAUGAACUCGGUAAUACACAUCACACGGCUGAGAGUCCCCUU: 0.456
UGUGUUCUGGCAAAGUGAUCUCAACAUGUAAGUAGUUGCAGUAAAACACAGGGGCAAAGGAAGACAGGCCUGAUGUGCCCACUCAUCUAUGGACUCAGAGCUGUGUGCUU: 0.463
CAGAGGUUUCUUGAAUAUCUGCCCCAGUAGUCAGAAGCAGGUUCUUGAUGUCAUGUACUUCCUGUGUACUCUUUAUUUCUAGCAGAGUGAGGAUGUGUUUUGCACGUCUU: 0.578
CAACACUGGGAGAUGUGUUUGCCAGUAAGUUGCUCAUCACAAGAGCACCAGACUUGGGGGGUGUAAUCUCCGGCAACUUGCAUGCCCUCUGAAAGAAGGGUUUUCUGUGC: 0.409
AGGUUAGGAGCUGUUGACUCAGGAUGAGGAAGUAUGGUCUUUAAAAAAAACAAAAUAUAUUUUAGAUUUCUCCCCUAAAGUUAGUUAGAGAAAAAGGUCUAUUCUUCAGC: 0.647
AACAUUUUAAAGACUAAUAUUGCUGAUACUUGAAAAAUCAAUCUCAACUAGAUUUUAAGUAGCAUCCAUAGACUUACUCUUUUUGAGCUUGAAGGACUAAAUUAUUAAUU: 0.521
UAAGCAUCUCAGAUCUGCAGUAUUGUGGUGGUGCUCCACUGAGCAGGAGUCCACUCAGAAGCAUGAGAACGGCCUGUAAUCCAGGCCGUGUCCUGCCACUAUGCCUGUAU: 1.55
AUCAAAACCUUGAGGCUAAUAUUACACUCAGGCCACACUCAGCACUUGCCUCCUCUUGUUUACUGCCUUGUAUUGUAGUUAUGUGUGUAUAUGUCUGUCUUUCUCAUUAG: 1.18
UUUUUGGUGUGUGUGUGUGUGUAUUGUGCUUAGAAAGGUUGCAGAUUUCAUCUUCACCUACCAAGAGGCGGCCGCCUCCUUGGACAAGCCGCUCAUGGACCAUUAGACUU: 0.4
CAACCCAGUAUCUCAUGUGCCAAAGCCUUCCCCCAGGUAGACAGAGGGGACAUUGCCUGAGAGCUCUUCAGGAGAGAGAUAGAUGGUUCGUCGAGUGCCAUCUUAUUUAU: 0.459
AUCCACUCCAAGCCAUGCUAGGAAUCUGCCCCCUGCCGGGUUCAGCUCUUUAAGGUGCCUCUUCAGGGACACAGUGUGUGUCUGAUUGGGCUUCGCAUCAAAAGCCUGAC: 0.298
CUGUCCUCUUCAUGGUGUCUCUUCCGUGUUUUGCUGAGCUGUUCUCAGGCACCCCCUCACUGCUCCCUCUUGAAAGGGUUGCUAGCCUUAACUUCAGCUGGUGCGAAACA: 0.347

Some of these lines once more (block 3):
AATCTCAG: -0.0645
AACTTGTG: 0.0871
AGTTATGC: 0.242
TGCTCCAA: -0.0262
AGTTCGCG: -0.191
CCTGATAA: 0.075
AATCCTTC: 0.0781
